# Published values pooled from the literature.
# Compare with care: the assays were run in different laboratories. ± marks the error that the study gave.
Structure (SMILES),test,system,setting,how to read,endpoint,value
CCC/C(=C\C1=C(C(F)(F)F)C(=O)c2ccccc2C1=O)C(=O)N(CC)CC,,mouse liver S9,"1 µM, pH 7.4, phase I metabolism",,CLint scaled,2.26 L/h/kg
C[C@@H](C(=O)O)N(CC(=O)N(CCS)CC(N)=O)C(=O)CN(C(=O)CN(C(=O)CN(C(=O)CN(C(=O)CN(C(=O)CN(C(=O)CN(C(=O)CN(C(=O)CN(C(=O)CN(C(=O)CN(C(=O)CN(CCS)C(=O)CN1CCCN(C(=O)CN2CCCNCC2)CC1)[C@@H](C)c1ccccc1)[C@@H](C)C(=O)O)[C@@H](C)C(=O)O)[C@@H](C)c1ccccc1)[C@@H](C)C(=O)O)[C@@H](C)C(=O)O)[C@@H](C)c1ccccc1)[C@@H](C)C(=O)O)[C@@H](C)C(=O)O)[C@@H](C)c1ccccc1)[C@@H](C)C(=O)O,,distilled water,,,water solubility,≥ 22.9 mM
Cc1ccc(-c2ccc(-c3cc4sccc4o3)cn2)nc1,TCSPC,acetonitrile,zinc-free ligand,,radiative decay rate constant,0.46 ns⁻¹
COc1ccc2ccc(C(=O)Nc3ccc(CN)cc3)c(O)c2c1,,rat liver microsomes,"1 µM, with: NADPH",,t1/2,1.05 h
[11CH3]c1ccc2nc(C3CCC3)n(-c3ccc4[nH]ncc4c3)c2n1,extrapolated from mouse biodistribution,"human female, gallbladder wall",,,absorbed dose,4.8 µSv/MBq
CO[C@H]1/C=C/O[C@@]2(C)Oc3c(C)c(O)c4c(c3C2=O)C2=NC3(CCN(CC(C)C)CC3)NC2=C(NC(=O)/C(C)=C\C=C\[C@H](C)[C@H](O)[C@@H](C)[C@@H](O)[C@@H](C)[C@H](OC(=O)c2cccc(F)c2)[C@@H]1C)C4=O,,CD-1 mouse,"10 mg/kg, single dose",,t1/2,11.7 h
CC(C)C[C@@H](NC(=O)[C@H](NC(=O)[C@H]1CCCN1)[C@H](C)O)C(=O)N[C@H](Cc1c[nH]cn1)C(=O)N[C@@H](C(=O)N[C@H](Cc1c[nH]cn1)C(=O)N[C@H](CC(N)=O)C(=O)N[C@H](CCCNC(=N)N)C(=O)N[C@H](CCCNC(=N)N)C(=O)N[C@H](CCCNC(=N)N)C(=O)N[C@H](CCCNC(=N)N)C(=O)N[C@H](CCCNC(=N)N)C(N)=O)[C@H](C)O,,"beagle dog, plasma","oral, 20 mg/kg, single dose",,AUC(0-t),3.34 µg·h/mL
CCCCCCCCCCCCCCCC(=O)NCCOCCOCCOCCOCCOCCOCCOCCOCCC(=O)NCCCC[C@H](NC(=O)CNC(=O)[C@@H]1CSSC[C@H](N)C(=O)N[C@@H](Cc2ccc(O)cc2)C(=O)N[C@@H]([C@@H](C)CC)C(=O)N[C@@H](CCC(N)=O)C(=O)N[C@@H](CC(N)=O)C(=O)N1)C(=O)NCC(N)=O,,"rat, CSF","subcutaneous depot, 10 mg/kg",,unbound Cmax,9 pM
N=C(N)NCCC[C@@H]1NC(=O)[C@H](Cc2c[nH]c3ccccc23)NC(=O)[C@@H](CC2CCCCC2)NC(=O)[C@@H]2CCCN2C(=O)[C@@H](NC(=O)CCc2ccccc2)CCCNC1=O,,"C57BL/6J mice, brain","oral, 1 mg/kg, two-compartment model",,elimination rate constant,6.94e-05 s⁻¹
CCCC[C@H](NC(=O)CNC(=O)CNC(=O)CN1CCN(CC(=O)O)CCN(CC(=O)O)CC1)C(=O)N[C@H]1CC(=O)NCCCC[C@@H](C(N)=O)NC(=O)[C@H](Cc2c[nH]c3ccccc23)NC(=O)[C@H](CCCNC(=N)N)NC(=O)[C@@H](Cc2ccccc2)NC(=O)[C@H](Cc2c[nH]cn2)NC1=O [copper-64 labelled],,"female C57 mouse, B16/F1 melanoma","intravenous, 0.037 MBq, 2 h",relative to: tumour over muscle,uptake ratio,42.7
Cc1nc(C)c(C=[N+]([O-])C(C)(C)C)nc1C,,"healthy human, both sexes, serum","oral, 600 mg twice daily, 7 days",,Vss/F,88.8 L
O=C(NCCCN(CCCCN(CCCNC(=O)c1cccc(=O)n1[O-])C(=O)c1cccc(=O)n1[O-])C(=O)c1cccc(=O)n1[O-])c1cccc(=O)n1[O-].[89Zr+4],radio-TLC,PBS,"1 h, pH 7.4, 37 °C, with: Fe^3+ 10-fold excess",,intact complex,97 ± 4.2%
OCc1cn(Cc2ccc(-c3noc(-c4ccc(OCC[18F])c(C(F)(F)F)c4)n3)cc2)nn1,,"rat, heart","intravenous, 5 min",,tracer uptake,1.65 %ID/g
CC(C)C[C@@H]1NC(=O)[C@@H]2CCCN2C(=O)[C@H](Cc2c[nH]c3ccccc23)NC(=O)[C@@H]2CCCN2C(=O)[C@H](Cc2ccccc2)NC(=O)[C@H](CC(=O)O)NC(=O)[C@H](C)NC(=O)[C@@H]2CSSC[C@H](NC(=O)[C@H](CCC(N)=O)NC(=O)[C@H](Cc3c[nH]cn3)NC(=O)CNC1=O)C(=O)N[C@@H](Cc1ccccc1)C(=O)N1CCC[C@H]1C(=O)N[C@@H](CC(=O)O)C(=O)NCC(=O)N[C@@H](Cc1ccccc1)C(=O)N[C@H]1CSSC[C@H](NC(=O)[C@H](CO)NC(=O)[C@H](Cc3c[nH]cn3)NC(=O)[C@H](Cc3c[nH]cn3)NC(=O)[C@H](Cc3c[nH]c4ccccc34)NC1=O)C(=O)N[C@@H](C(C)C)C(=O)N1CCC[C@H]1C(=O)N[C@@H](CO)C(=O)NCC(=O)N[C@@H]([C@@H](C)O)C(=O)N2,NOESY NMR,water,,,dimer dissociation temperature,328 K
COC(=O)c1ccc2c(c1)NC(=O)/C2=C(\Nc1ccc2c(c1)CCN2C(=O)CN1CCOCC1)c1ccccc1,,"cynomolgus monkey, plasma","oral, 5 mg/kg",,Tmax,6 h
C=C(c1ncc(C(=O)O)cn1)c1cc2c(cc1C)C(C)(C)CCC2(C)C,,"Sprague-Dawley rat, male","oral, 100 mg/kg, 12 h, sesame oil vehicle",,blood triglycerides,352 ± 355 mg/dL
CCc1nc(-c2ccc(-c3ccc(CCC(N)(CO)CO)cc3)cc2)co1,phosphorylation,human whole blood,,,CLint,0.014 µL/min
CCN(CC)c1ccc2c(-c3ccc(S(=O)(=O)NCCNC(=O)CN4CCN(CC(=O)[O-])CCN(CC(=O)O)CCN(CC(=O)[O-])CC4)cc3S(=O)(=O)[O-])c3ccc(=[N+](CC)CC)cc-3oc2c1.[64Cu+2],,"nude mice, U-87 MG xenograft","dose not given, 1 h post-injection",relative to: injected dose,radioactivity in urine,> 65%
O=C(O)C1OC(OC2C(COS(=O)(=O)O)OC(OC3C(C(=O)O)OC(OC4C(COS(=O)(=O)O)OC(OC5C(C(=O)O)OC(OC6C(COS(=O)(=O)O)OC(OC7C(C(=O)O)OC(OC8C(COS(=O)(=O)O)OC(OC9C(C(=O)O)OC(OC%10C(COS(=O)(=O)O)OC(OC%11C(C(=O)O)OC(Oc%12ccc([N+](=O)[O-])cc%12)C(O)C%11O)C(NS(=O)(=O)O)C%10O)C(OS(=O)(=O)O)C9O)C(NS(=O)(=O)O)C8O)C(OS(=O)(=O)O)C7O)C(NS(=O)(=O)O)C6O)C(OS(=O)(=O)O)C5O)C(NS(=O)(=O)O)C4O)C(OS(=O)(=O)O)C3O)C(NS(=O)(=O)O)C2OS(=O)(=O)O)C(O)C(O)C1OC1OC(COS(=O)(=O)O)C(O)C(O)C1NS(=O)(=O)O (stereo not shown),,"rats, serum","intravenous, 3600 µg/kg/day for 7 days, day 8",,albumin,3.62 ± 0.08 g/dL
O=C([O-])CN1CCN(CC(=O)[O-])CCN(CC(=O)[O-])CCN(CC(=O)[O-])CC1.[64Cu+2],,human serum,"20 h, 37 °C, with: 64Cu",,radiometal bound to chelator,74%
C[C@H](Oc1cc(-c2cnn(C3CCN(CC[18F])CC3)c2)cnc1N)c1c(Cl)ccc(F)c1Cl,PET imaging,"nude mouse, heart","iv, 60 min post injection",,tracer uptake,1.6 ± 0.4 %ID/cc
Cc1cccc(O[C@H]2CCC[C@@H](C(C)CNCc3ccncc3)C2)c1 (relative stereo),,"C57BL/6 mouse female, plasma","oral, 25 mg/kg",,AUC(0-t),2.77 µg·h/mL
NC[C@@H](C(=O)Nc1ccc(-c2cn[nH]c2)cc1)c1ccccc1,,New Zealand White rabbits,"topical, 0.1 %, first hour","relative to: contralateral eye, direction not given",ocular hyperemia score,0 to 1
CCC(C)N(C)C(=O)c1nc(-c2cccc(C(F)(F)[18F])c2)c2ccccc2n1 (stereo not shown),,"healthy mice, blood","intravenous, 3.7 MBq",,alpha half-life,~7.89 min
Oc1ccc2ccccc2c1/N=N/c1ccc(/N=N/c2ccccc2)cc1,,extracted rat blood QC samples,"0.5 µg/L, 8 h, room temperature, short-term stability",,measured concentration,0.524 µg/L
Cn1c(=O)oc2ccc(-c3ccc(CC(C#N)NC(=O)C4CNCCCO4)c(F)c3)cc21 (stereo not shown),,human,"dose not given, single ascending doses, all subjects",,subjects with urine glucose,6.7%
C=CC(=O)Nc1cc(Nc2nccc(-n3ccc4nc(OC)ccc43)n2)c(OC)cc1N(C)CCN(C)C,,"BALB/c nude mouse, H1975 intracranial tumour","oral, 60 mg/kg, 1 h",relative to: brain tumour over plasma,tissue/plasma ratio,1.23
C#CCOc1ccc(/C=C2\SC(=O)N(CC(=O)NCc3ccccc3)C2=O)cc1,inverse Kirkwood-Buff integrals,binary solvent mixture,"298.15 K, mole fraction x1 0.30",,"Kirkwood-Buff integral G1,3",-270 cm³/mol
CC(C)(Sc1ccncc1-c1ccc(C#N)c2ccccc12)C(=O)OC1OC(C(=O)O)C(O)C(O)C1O (stereo not shown),,plasma,"oral, 15 mg, mild renal impairment, fasted",,terminal half-life,10.6 h
CN(C)c1cc(CN2CCCCC2)c(O)c2c1C[C@H]1C[C@H]3[C@H](N(C)C)C(O)=C(C(N)=O)C(=O)[C@@]3(O)C(O)=C1C2=O,,"cynomolgus monkey, plasma","intravenous, 5 mg/kg",,half-life,15.1 h
NS(=O)(=O)c1ccc(N2N=C(C(F)(F)F)CC2c2ccc(F)cc2F)cc1 (stereo not shown),"population PK model, NONMEM",Beagle dog,,,"V/F peripheral, bootstrap median",27.7 L
Cc1ccccc1/N=N/c1ccc(/N=N/c2c(O)ccc3ccccc23)c(C)c1,,"Sprague-Dawley rats both sexes, whole blood","oral, 50 mg/kg",,absorption rate constant,0.44 h⁻¹
CCCC[C@@H]1NC(=O)[C@@H](NC(=O)[C@H](CCC(=O)O)NC(=O)CNC(=O)CN2CCN(CC(=O)O)CCN(CC(=O)O)CCN(CC(=O)O)CC2)CCCCNC(=O)C[C@@H](C(N)=O)NC(=O)[C@H](C(C)C)NC(=O)[C@@H]2CCCN2C(=O)[C@H](CCCNC(=N)N)NC(=O)CNC(=O)[C@H](Cc2c[nH]c3ccccc23)NC(=O)[C@H](CCCNC(=N)N)NC(=O)[C@@H](Cc2ccccc2)NC(=O)[C@H](Cc2c[nH]cn2)NC(=O)[C@H](CCC(=O)O)NC1=O [gallium-67 labelled],,"C57 mice, B16/F1 flank melanoma","intravenous, 4 h",relative to: tumour over skin,tissue ratio,40.6
CCN(c1cc(C#CCN2CCOCC2)cc(C(=O)NCc2c(C)cc(C)[nH]c2=O)c1C)[C@H]1CC[C@H](N(C)CCOC)CC1,,rat liver microsomes,well-stirred model,,scaled intrinsic clearance,< 0.6 L/h/kg

# Excerpt of the above:
Structure (SMILES),test,system,setting,how to read,endpoint,value
Cn1c(=O)oc2ccc(-c3ccc(CC(C#N)NC(=O)C4CNCCCO4)c(F)c3)cc21 (stereo not shown),,human,"dose not given, single ascending doses, all subjects",,subjects with urine glucose,6.7%
C=CC(=O)Nc1cc(Nc2nccc(-n3ccc4nc(OC)ccc43)n2)c(OC)cc1N(C)CCN(C)C,,"BALB/c nude mouse, H1975 intracranial tumour","oral, 60 mg/kg, 1 h",relative to: brain tumour over plasma,tissue/plasma ratio,1.23
